Published values collected from several papers.
Lines come from different studies, so protocols differ.
4'-phosphopantetheinyl transferase PptT: 4'-phosphopantetheinyl transferase PptT (Mycobacterium tuberculosis, UniProt O33336)
Sequence of UniProt O33336 (whole entry, looked up): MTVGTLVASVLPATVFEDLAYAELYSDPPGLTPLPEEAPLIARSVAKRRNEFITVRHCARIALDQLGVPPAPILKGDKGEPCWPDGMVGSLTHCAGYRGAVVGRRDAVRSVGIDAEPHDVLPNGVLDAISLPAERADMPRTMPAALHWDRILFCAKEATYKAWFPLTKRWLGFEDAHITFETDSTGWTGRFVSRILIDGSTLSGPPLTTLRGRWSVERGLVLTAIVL
Sequence of UniProt P41595 (whole entry, looked up): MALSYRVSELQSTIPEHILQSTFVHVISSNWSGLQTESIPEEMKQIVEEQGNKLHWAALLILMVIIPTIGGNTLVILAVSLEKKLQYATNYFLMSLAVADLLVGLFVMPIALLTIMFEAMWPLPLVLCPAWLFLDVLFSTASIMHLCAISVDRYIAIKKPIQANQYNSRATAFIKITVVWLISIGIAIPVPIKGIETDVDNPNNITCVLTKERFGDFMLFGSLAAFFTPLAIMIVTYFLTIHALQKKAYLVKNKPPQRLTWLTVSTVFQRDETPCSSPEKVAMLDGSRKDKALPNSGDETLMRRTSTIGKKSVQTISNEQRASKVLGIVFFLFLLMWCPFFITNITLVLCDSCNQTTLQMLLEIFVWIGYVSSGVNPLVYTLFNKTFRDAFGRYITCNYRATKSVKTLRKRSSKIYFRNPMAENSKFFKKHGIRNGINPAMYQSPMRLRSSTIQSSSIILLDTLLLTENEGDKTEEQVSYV
Sequence of UniProt Q8TBX8 (whole entry, looked up): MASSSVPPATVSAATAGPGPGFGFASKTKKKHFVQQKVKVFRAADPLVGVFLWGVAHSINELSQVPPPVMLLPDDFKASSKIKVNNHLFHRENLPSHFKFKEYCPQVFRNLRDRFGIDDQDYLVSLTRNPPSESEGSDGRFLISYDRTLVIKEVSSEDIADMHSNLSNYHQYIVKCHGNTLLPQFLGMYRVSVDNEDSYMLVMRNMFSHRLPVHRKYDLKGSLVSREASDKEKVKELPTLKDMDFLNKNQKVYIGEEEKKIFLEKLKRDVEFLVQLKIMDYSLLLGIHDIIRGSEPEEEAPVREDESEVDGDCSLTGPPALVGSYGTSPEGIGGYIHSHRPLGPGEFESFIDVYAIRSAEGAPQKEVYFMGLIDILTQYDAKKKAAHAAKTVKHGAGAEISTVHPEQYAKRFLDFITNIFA
Sequence of UniProt Q8IVW4 (whole entry, looked up): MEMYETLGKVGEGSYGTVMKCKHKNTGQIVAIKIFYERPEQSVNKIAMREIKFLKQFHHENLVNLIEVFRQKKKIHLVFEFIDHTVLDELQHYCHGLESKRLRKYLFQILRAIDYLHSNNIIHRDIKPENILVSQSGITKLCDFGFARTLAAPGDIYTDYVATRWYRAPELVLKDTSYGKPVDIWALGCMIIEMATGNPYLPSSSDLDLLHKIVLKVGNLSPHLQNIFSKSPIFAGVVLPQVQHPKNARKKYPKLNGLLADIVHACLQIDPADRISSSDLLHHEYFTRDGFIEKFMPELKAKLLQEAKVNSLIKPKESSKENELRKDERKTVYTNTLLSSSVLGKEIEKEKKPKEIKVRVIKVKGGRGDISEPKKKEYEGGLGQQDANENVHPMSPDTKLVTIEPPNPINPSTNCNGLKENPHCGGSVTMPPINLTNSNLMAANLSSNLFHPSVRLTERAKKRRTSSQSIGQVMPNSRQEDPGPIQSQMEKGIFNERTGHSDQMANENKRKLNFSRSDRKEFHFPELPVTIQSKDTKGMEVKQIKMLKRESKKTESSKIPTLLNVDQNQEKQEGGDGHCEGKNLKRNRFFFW
Sequence of UniProt Q52WX2 (whole entry, looked up): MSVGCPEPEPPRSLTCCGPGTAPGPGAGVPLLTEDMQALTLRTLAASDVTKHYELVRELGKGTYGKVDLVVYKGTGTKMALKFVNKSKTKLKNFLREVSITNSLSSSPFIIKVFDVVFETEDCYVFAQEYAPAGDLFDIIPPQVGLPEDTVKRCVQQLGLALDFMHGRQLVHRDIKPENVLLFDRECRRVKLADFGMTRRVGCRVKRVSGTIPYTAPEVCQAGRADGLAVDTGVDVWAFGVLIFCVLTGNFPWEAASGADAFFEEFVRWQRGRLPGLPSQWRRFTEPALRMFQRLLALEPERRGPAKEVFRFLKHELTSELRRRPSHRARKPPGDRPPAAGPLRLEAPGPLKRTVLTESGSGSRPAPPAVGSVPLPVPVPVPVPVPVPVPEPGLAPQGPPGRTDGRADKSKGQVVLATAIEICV

With `COC(=O)c1cc(-c2cccc(NC(=O)Nc3ccc(F)cc3F)c2)on1` the MIC was over 64 µg/mL (Mycobacteroides abscessus; microbial growth, broth dilution; ATCC19977; 48 h).
The EC50 of `COc1cc(CCNC(C)c2ccccc2O)c(OC)cc1C#N` (centres unmarked) is reported as 7.6 µM (5-hydroxytryptamine receptor 2B (HTR2B, Homo sapiens, UniProt P41595); G protein activation, agonist, BRET).
With `C[C@@H](O)[C@@H]1NC(=O)[C@@H](CCCCN)NC(=O)[C@H](CCCN)NC(=O)[C@@H](CCCN)NC(=O)[C@H](CO)NC(=O)[C@H](Cc2c[nH]c3ccccc23)NC(=O)[C@@H](Cc2c[nH]c3ccccc23)NC1=O` the IC50 was over 16 µg/mL (Balamuthia mandrillaris; parasite growth, ATP luminescence).
`COC(=O)c1cc(-c2cccc(NC(=S)Nc3ccccc3Cl)c2)on1` has an MIC of over 64 µg/mL (Mycobacteroides abscessus; microbial growth, broth dilution; ATCC19977; 48 h).
The EC50 of `O=C(NNc1ccc(Cl)cc1)c1nnc(C23CC4CC(CC(C4)C2)C3)o1` is reported as 3.74 µg/mL (Fusarium oxysporum; microbial growth).
`O=c1[nH]c2ccc(Cl)cc2c(=O)n1Cc1cccnc1` has an IC50 of 6.08 µM (4'-phosphopantetheinyl transferase PptT; enzyme activity, inhibitor, FP).
`Cc1nn(C)cc1-c1nc2c(N3CCN(Cc4ccc(Cl)cc4)CC3)c(Cl)cnc2[nH]1` has a remaining binding of 80% (Serine/threonine-protein kinase SBK1 (SBK1, Homo sapiens, UniProt Q52WX2); binding, competition with immobilised ligand; 1 µM).
`CC(C)[C@H]1NC(=O)[C@H](CCCNC(=N)N)NC(=O)CNC(=O)[C@@H](Cc2c[nH]c3ccccc23)NC(=O)[C@H](CCCCN)NC(=O)[C@@H](CCCN)NC1=O` gave an IC50 of over 16 µg/mL (Balamuthia mandrillaris; parasite growth, ATP luminescence).
`COc1ncccc1-c1cnn2ccc(N3CCN(C(=O)OC(C)C)CC3)nc12` has a remaining binding of 84% (Cyclin-dependent kinase-like 3 (CDKL3, Homo sapiens, UniProt Q8IVW4); binding, competition with immobilised ligand; 1 µM).
`COC(=O)c1cc(-c2cccc(NC(=O)Nc3cc(Cl)ccc3Cl)c2)on1` gave an MIC of over 64 µg/mL (Mycobacteroides abscessus; microbial growth, broth dilution; ATCC19977; 48 h).
With `O=C(NNc1cccc(Cl)c1)c1nnc(CC23CC4CC(CC(C4)C2)C3)o1` the EC50 was over 50 µg/mL (Fusarium oxysporum; microbial growth).
With `Oc1c(Br)cc(Br)cc1-c1[nH]c(Br)c(Br)c1Br` the MIC was 32 µM (Enterococcus faecalis; microbial growth; ATCC29212).
`CC(C)[C@@H]1NC(=O)[C@@H](CCCNC(=N)N)NC(=O)[C@H]([C@@H](C)O)NC(=O)[C@@H](CCN)NC(=O)[C@H](Cc2ccccc2)NC(=O)[C@@H](Cc2ccccc2)NC1=O` gave an IC90 of 10.8 µM (Balamuthia mandrillaris; parasite growth, ATP luminescence).
`CN(C)CCC(c1cccnc1)n1c(=S)[nH]c2ccc(Cl)cc2c1=O` (centres unmarked) gave an IC50 of 20.4 µM (4'-phosphopantetheinyl transferase PptT; enzyme activity, inhibitor, FP).
With `CC(C)[C@@H]1NC(=O)[C@@H](CCCCN)NC(=O)[C@H](CCCCN)NC(=O)[C@@H](CCCN)NC(=O)[C@H](C)NC(=O)[C@H](Cc2c[nH]c3ccccc23)NC(=O)[C@@H](Cc2ccccc2)NC1=O` the IC50 was over 16 µg/mL (Balamuthia mandrillaris; parasite growth, ATP luminescence).
`COC(=O)c1cc(-c2cccc(NC(=O)NCc3ccccc3)c2)on1` has an MIC of over 64 µg/mL (Acinetobacter baumannii; microbial growth, broth dilution; BAA1605).
With `N.N.[Cl][Pt][Cl]` the IC50 was 1.03 µM (SU-DHL-4; cell growth or viability, ATP luminescence; 72 h).
`COC(=O)c1cc(-c2cccc(NC(=S)Nc3ccc(Cl)cc3)c2)on1` has an MIC of over 64 µg/mL (Acinetobacter baumannii; microbial growth, broth dilution; BAA1605).
`O=C(NNc1ccc(F)c(F)c1)c1nnc(C23CC4CC(CC(C4)C2)C3)o1` has an inhibition of 100% (Fusarium oxysporum; microbial growth; 50 µg/mL).
`CC[C@H](C)[C@H](NC(=O)[C@H](Cc1ccccc1)NC(=O)[C@H](CCC(=O)O)NC(=O)[C@H](CCCNC(=N)N)NC(=O)[C@H](C)NC(=O)[C@H](C)NC(=O)[C@H](CCC(N)=O)NC(=O)[C@H](CCC(=O)O)NC(=O)[C@H](CCC(=O)O)NC(=O)[C@H](CC(C)C)NC(=O)[C@H](Cc1ccc(O)cc1)NC(=O)[C@H](CO)NC(=O)[C@H](CO)NC(=O)[C@@H](NC(=O)[C@H](CC(=O)O)NC(=O)[C@H](CO)NC(=O)[C@@H](NC(=O)[C@H](Cc1ccccc1)NC(=O)[C@@H](NC(=O)CNC(=O)[C@H](CCC(=O)O)NC(=O)[C@H](C)NC(=O)CCc1c[nH]cn1)[C@@H](C)O)[C@@H](C)O)C(C)C)C(=O)N[C@@H](C)C(=O)N[C@@H](Cc1c[nH]c2ccccc12)C(=O)N[C@@H](CC(C)C)C(=O)N[C@H](C(=O)N[C@@H](CCCNC(=N)N)C(=O)NCC(=O)N[C@@H](CCCNC(=N)N)C(=O)N[C@@H](CCCCNC(=O)COCCOCCNC(=O)COCCOCCNC(=O)CC[C@H](NC(=O)CCCCCCCCCCCCCCCCC(=O)O)C(=O)O)C(=O)NCC(=O)NCC(=O)N[C@@H](CO)C(=O)N[C@@H](CCCCNc1c(NCCCCCN(O)C(=O)CCC(=O)NCCCCCN(O)C(=O)CCC(=O)NCCCCCN(O)C(C)=O)c(=O)c1=O)C(=O)O)C(C)C` gave a C0 of 359 nM (rat, plasma; intravenous, 20 nmol/kg, single dose).
With `COC(=O)c1cc(-c2cccc(NC(=S)Nc3cccc(Br)c3)c2)on1` the MIC was over 64 µg/mL (Acinetobacter baumannii; microbial growth, broth dilution; BAA1605).
With `[2H]c1c([2H])c([C@]2([2H])CCCN2C(=O)C(C)(C)Oc2ccc3cn[nH]c3c2)c([2H])c([2H])c1C([2H])([2H])[2H]` the remaining binding was 88% (Mitogen-activated protein kinase kinase kinase 20 (MAP3K20, Homo sapiens, UniProt Q9NYL2); binding, competition with immobilised ligand; 1 µM).
With `C[C@H]1NC(=O)[C@H](Cc2c[nH]c3ccccc23)NC(=O)[C@@H](Cc2ccccc2)NC(=O)[C@@H](CCCN)NC(=O)[C@H]([C@@H](C)O)NC(=O)[C@@H](CCCN)NC(=O)[C@H](Cc2c[nH]c3ccccc23)NC(=O)[C@@H](C)NC1=O` the IC90 was over 16 µg/mL (Balamuthia mandrillaris; parasite growth, ATP luminescence).
For `CC(=O)N1CCN(c2ccc(OCC3COC(Cn4ccnc4)(c4ccc(Cl)cc4Cl)O3)cc2)CC1` (centres unmarked), the MFC was over 64 µM (Candida albicans; microbial killing, broth dilution; 48 h).
`CC(C)[C@H]1NC(=O)[C@H](Cc2ccccc2)NC(=O)[C@@H](Cc2c[nH]c3ccccc23)NC(=O)[C@H](CCCNC(=N)N)NC(=O)[C@@H](CCCN)NC(=O)[C@H](CC(N)=O)NC1=O` gave an IC90 of over 16 µg/mL (Balamuthia mandrillaris; parasite growth, ATP luminescence).
With `O=C(NNc1cccc(Cl)c1)c1nnc(C23CC4CC(CC(C4)C2)C3)o1` the inhibition was 46.8% (Sclerotinia sclerotiorum; microbial growth; 50 µg/mL).
With `COC(=O)c1cc(-c2cccc(NC(=O)Nc3ccccc3OC)c2)on1` the MIC was over 64 µg/mL (Mycobacteroides abscessus; microbial growth, broth dilution; ATCC19977; 48 h).
With `CO/C=C(/C(=O)OC)c1ccccc1Oc1cc(Oc2ccccc2C#N)ncn1` the inhibition was 74.2% (Sclerotinia sclerotiorum; microbial growth; 50 µg/mL).
The IC50 of `CC(C)[C@H]1NC(=O)[C@H](Cc2ccccc2)NC(=O)CNC(=O)[C@@H](Cc2ccccc2)NC(=O)[C@H](CCC(N)=O)NC(=O)[C@@H](CCCN)NC1=O` is reported as over 16 µg/mL (Balamuthia mandrillaris; parasite growth, ATP luminescence).
The MIC of `Oc1c(Cl)cc(Cl)cc1-c1[nH]c(Cl)c(Cl)c1Cl` is reported as 5.33 µM (Escherichia coli; microbial growth; K12, MG1655).
`O=C(NNc1ccccc1)c1nnc(CC23CC4CC(CC(C4)C2)C3)o1` has an inhibition of 72.4% (Sclerotinia sclerotiorum; microbial growth; 50 µg/mL).
For `Nc1ncc(-c2nc(N3CCOCC3)nc(N3CCOCC3)n2)c(C(F)F)n1`, the remaining binding was 84% (Phosphatidylinositol 5-phosphate 4-kinase type-2 gamma (PIP4K2C, Homo sapiens, UniProt Q8TBX8); binding, competition with immobilised ligand; 10 µM).
